Published values pooled from the literature.
Parts stem from different laboratories: compare values within a part only.

Series 1
Target: Sal-like protein 4, full length isoform A (SALL4, Homo sapiens, UniProt Q9UJQ4, residues 1-1053)
Sequence of UniProt Q9UJQ4 (whole entry, looked up): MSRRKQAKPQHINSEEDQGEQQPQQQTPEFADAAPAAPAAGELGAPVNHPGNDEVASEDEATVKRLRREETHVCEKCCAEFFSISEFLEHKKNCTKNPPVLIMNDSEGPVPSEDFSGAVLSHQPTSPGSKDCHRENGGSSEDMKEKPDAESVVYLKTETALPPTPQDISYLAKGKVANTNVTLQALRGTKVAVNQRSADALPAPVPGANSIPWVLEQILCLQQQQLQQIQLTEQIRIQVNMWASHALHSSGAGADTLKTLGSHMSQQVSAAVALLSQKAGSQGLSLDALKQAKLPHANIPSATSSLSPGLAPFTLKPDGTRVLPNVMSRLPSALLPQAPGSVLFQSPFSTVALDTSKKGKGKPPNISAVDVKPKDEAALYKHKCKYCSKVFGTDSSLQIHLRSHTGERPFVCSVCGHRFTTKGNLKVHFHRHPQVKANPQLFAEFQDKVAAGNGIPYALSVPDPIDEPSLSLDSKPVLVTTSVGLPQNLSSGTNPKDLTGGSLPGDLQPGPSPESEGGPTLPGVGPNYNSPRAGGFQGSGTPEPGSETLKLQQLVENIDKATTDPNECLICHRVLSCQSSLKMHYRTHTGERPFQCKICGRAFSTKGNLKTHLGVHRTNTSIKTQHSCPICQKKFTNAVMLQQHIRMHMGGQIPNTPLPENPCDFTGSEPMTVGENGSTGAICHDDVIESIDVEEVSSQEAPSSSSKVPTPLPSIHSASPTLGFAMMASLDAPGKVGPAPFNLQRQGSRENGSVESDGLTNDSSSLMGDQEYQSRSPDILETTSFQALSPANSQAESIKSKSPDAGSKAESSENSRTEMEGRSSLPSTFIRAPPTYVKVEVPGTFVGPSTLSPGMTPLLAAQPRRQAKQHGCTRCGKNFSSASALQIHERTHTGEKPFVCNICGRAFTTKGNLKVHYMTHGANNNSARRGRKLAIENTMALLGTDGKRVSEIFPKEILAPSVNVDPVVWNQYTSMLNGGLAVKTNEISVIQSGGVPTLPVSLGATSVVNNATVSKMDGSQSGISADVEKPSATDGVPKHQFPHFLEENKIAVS
Technique: universal PBM
Form: double-stranded DNA, one strand shown
Sample: in vitro
Concentration: 600 nM
Setting: 8-mer, flanks averaged, mean of replicates
Reading: higher = stronger binding
Endpoint: E-score
ATGGCCCC: -0.361
ACTGCCTC: -0.142
CCCAGTAA: -0.0203
ACATGTTG: 0.191
CCATATCG: 0.149
AGGTTTGG: -0.112
ACGTCTCC: -0.144

Series 2
Target: RNA binding protein fox-1 homolog 2, RRM domain, GST-SBP tag (RBFOX2, Homo sapiens, UniProt O43251-10, residues 100-194)
Technique: RNA Bind-n-Seq
Form: RNA
Sample: in vitro
Concentration: 365 nM
Setting: natural RNA segment, single round, ends assumed
Baseline: no-protein control
Reading: higher = stronger binding
Endpoint: RBNS enrichment (R)
All sequences stand within: GGGAGUUCUACAGUCCGACGAUC … UGGAAUUCUCGGGUGCCAA
Residues (chain): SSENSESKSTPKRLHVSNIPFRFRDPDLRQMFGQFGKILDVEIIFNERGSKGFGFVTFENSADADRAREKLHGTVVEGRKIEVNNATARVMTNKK
GAAGAUAAUCACAGACGUUAGUUAGAGUGUAUUUAUUUUUUUAAGUUACAAUAAAGUGCUCAGUCCUAGUCUUUUCUUGUGUUCUAAUGUUAAUUCCAAACUUUCUCUCA: 0.523
AACAGCAAGCAUUAUGGUCAAACAGCAAAGGCCAUAACCUUUUGGGAUUUUUUUUUUUUUAAAAUACUUUAGGGACUGUUGUAAUUUCUCAUAUGGUGCUGGAAAUGGUU: 0.683
CACUUAAGUUAUUGUGUUAAACCAAAGUUUACAGUGUCUGUUGGUAGCAAGACCCCCUCCUCCCCUCUACCACCCCCCCCAAGGGUCCAGGGGUCCUACUCGCUUCCCCC: 0.453
UUAAAAAACUGCCUUAGGGUUUUAAAACCUUCCCUACAGUUAUAACCACGUGUAAUUUUGUGGAAAUGAUAUAACAGCUAUUAAUACUACUAUAACAUAGGCAUAAAUAU: 0.533
ACUGUAAACAUUGCUUAAUUUUUUUGCUCUUGAUUUAAAAAAAAGUUUUGUUGAAAGCGCUAUUGAAUAUUGCAAUCUAUAUAGUGUAUUGGAUGGCUUCUUUUGUCACC: 0.232
CAGUAGCUCAGACCUGUCUUUUCUUGCACACCAGCUGUGCUCUUGAGAAAAUGUAAAGGCUGCCAUUAUGGAUAUUAGGUAUCCCAACAUAACCAUCUGGAGUGUGUCCA: 0.248
CACCCUCGAGCGGGGUUCCCCUCAUUGUACAGAUGGGGCAGGACCCAGCACGCUGCUGGCAGAGAUGGUUUGAGAACACAUCCAAGCCAGUCCCCCCAGCCCAGCUUCCC: 0.235

Series 3
Target: Prothrombin, mature alpha-thrombin (F2, Homo sapiens, UniProt P00734)
Technique: aptamer microarray, sandwich
Form: DNA with 2'F-ANA
Sample: in vitro
Concentration: 200 nM
Setting: whole 15-mer aptamer, many near background
Added: Cy3 exosite-II aptamer, 400 nM
Reading: higher = stronger binding
Endpoint: mean fluorescence intensity
Strand: GGTTGGTGTGGTTGG
2'F-ANA at 1 6 7 9 12 13 14 15: 63.8 a.u.
2'F-ANA at 1 2 3 4 6 7 8 9 10 12 13 14: 48.5 a.u.
2'F-ANA at 2 3 4 6 11 13 14: 230 a.u.
2'F-ANA at 2 3 8 13 14 15: 452 a.u.
2'F-ANA at 1 2 3 6 8 9: 258 a.u.
2'F-ANA at 1 3 5 6 7 8 10: 301 a.u.
2'F-ANA at 2 3 6 7 10 12 14 15: 285 a.u.

Single results of other studies
PhoQ, residues 284 288 289 292 302 303 QWQEDG
fold induction (PhoP, residues 12 14 15 18 19 HLGGL (Escherichia coli, UniProt P23836); Sort-seq, item: YFP reporter; E. coli; PhoQ-PhoP variant library, added: 10 µM Mg2+; baseline: high Mg2+ state, higher = stronger signaling): 1.92

For quick reference, copied from above (series 1):
ATGGCCCC: -0.361
ACTGCCTC: -0.142
CCCAGTAA: -0.0203
